Results collected from several papers.
Every numbered part comes from another study and shows a few of its results, in no order. Positions count from the first letter of the parent shown.

Set 1
Target: CCNF, cyclin fold, Cln2 fusion (human)
Technique: yeast growth competition, sequencing
Sample: yeast
Setting: strong parent motif
Baseline: not given
Direction: higher = stronger binding
Starting sequence: CDKN1B docking peptide (human); PSACRNLFGPVDH; partner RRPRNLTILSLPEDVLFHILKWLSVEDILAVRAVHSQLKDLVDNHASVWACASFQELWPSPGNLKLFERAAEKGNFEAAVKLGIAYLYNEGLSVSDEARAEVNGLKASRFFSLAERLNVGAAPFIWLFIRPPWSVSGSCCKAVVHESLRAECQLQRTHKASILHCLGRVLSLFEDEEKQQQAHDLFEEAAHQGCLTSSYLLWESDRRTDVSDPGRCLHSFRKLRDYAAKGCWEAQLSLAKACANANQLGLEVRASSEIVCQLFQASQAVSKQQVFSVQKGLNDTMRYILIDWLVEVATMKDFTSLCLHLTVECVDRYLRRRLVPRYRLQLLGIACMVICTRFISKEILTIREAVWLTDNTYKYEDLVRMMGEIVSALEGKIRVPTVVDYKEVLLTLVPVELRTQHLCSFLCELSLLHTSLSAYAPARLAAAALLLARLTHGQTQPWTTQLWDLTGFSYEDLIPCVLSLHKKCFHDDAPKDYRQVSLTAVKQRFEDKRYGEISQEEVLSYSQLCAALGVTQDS
| Substitution | normalised enrichment score |
| --- | --- |
| PSFCRNLFGPVDH [A3F] | 6.14 |
| PSACRNRFGPVDH [L7R] | 0.703 |
| CSACRNLFGPVDH [P1C] | 6.83 |
| PSACNNLFGPVDH [R5N] | -0.287 |
| PSACRNLFSPVDH [G9S] | 3.41 |
| PSACRNLFIPVDH [G9I] | 3.08 |
| QSACRNLFGPVDH [P1Q] | 7.6 |
| PSACRNLIGPVDH [F8I] | 0.663 |
| PSACRELFGPVDH [N6E] | 5.36 |
| PSACRNLFGPDDH [V11D] | 6.94 |
| PSACRNLFGPVDF [H13F] | 7.51 |
| PSACRNLFGPVDI [H13I] | 7.03 |
| PSQCRNLFGPVDH [A3Q] | 3.98 |
| PSACRCLFGPVDH [N6C] | 6.13 |
| PSACRKLFGPVDH [N6K] | 7.11 |
| PSACRALFGPVDH [N6A] | 5.79 |
| PSACRNLFGPVDC [H13C] | 7.1 |
| FSACRNLFGPVDH [P1F] | 8.06 |
| PSACRNLFKPVDH [G9K] | 4.04 |
| PSACRNLFGPWDH [V11W] | 7.77 |
| PSPCRNLFGPVDH [A3P] | 5.77 |
| PSAYRNLFGPVDH [C4Y] | 3.62 |
| PSACRNLFGHVDH [P10H] | 5.77 |
| PSACENLFGPVDH [R5E] | 0.346 |
| PSACRNLGGPVDH [F8G] | 0.115 |

Set 2
Target: NFE2L2, bZIP domain (human)
Technique: DHFR protein complementation
Sample: yeast
Setting: single substitutions, most at no-binding floor
Baseline: wild-type JUN-FOS pair
Direction: higher = stronger binding
Starting sequence: JUN, bZIP domain (human); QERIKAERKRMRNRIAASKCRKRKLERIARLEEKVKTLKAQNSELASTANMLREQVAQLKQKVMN; partner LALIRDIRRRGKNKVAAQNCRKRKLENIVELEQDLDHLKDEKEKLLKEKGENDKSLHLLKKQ
| Substitution | binding fitness [natural log] |
| --- | --- |
| A57P | -1.55 |
| E32P | -1.5 |
| L38P | -1.49 |
| A40Y | -1.5 |
| R53L | -1.43 |
| M51P | -1.5 |
| L38N | -1.38 |
| E54R | -1.36 |
| A29C | -1.43 |
| K34T | -1.44 |
| K39F | -1.48 |
| L31K | -1.62 |
| S47A | -1.46 |
| E32V | -1.49 |
| T37P | -1.52 |
| R53S | -1.53 |
| K39V | -1.4 |
| T37N | -1.3 |
| N42G | -1.4 |
| E54A | -1.5 |
| L31P | -1.46 |
| S47N | -1.51 |
| K36S | -1.28 |
| A49H | -1.46 |

Set 3
Target: ABI1, truncated, D143A, DHFR fusion (Arabidopsis thaliana)
Technique: DHFR PCA, deep sequencing
Sample: yeast
Setting: methotrexate growth selection, single substitutions
Together with: (+)-ABA 17 µM
Baseline: wild-type fitted maximum
Direction: higher = stronger binding
Starting sequence: PYL1, truncated, DHFR fusion (Arabidopsis thaliana); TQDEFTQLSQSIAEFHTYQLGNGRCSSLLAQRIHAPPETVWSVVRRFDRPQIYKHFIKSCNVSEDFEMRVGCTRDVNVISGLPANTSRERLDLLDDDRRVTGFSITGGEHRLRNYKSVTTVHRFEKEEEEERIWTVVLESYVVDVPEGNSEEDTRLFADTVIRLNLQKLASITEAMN; partner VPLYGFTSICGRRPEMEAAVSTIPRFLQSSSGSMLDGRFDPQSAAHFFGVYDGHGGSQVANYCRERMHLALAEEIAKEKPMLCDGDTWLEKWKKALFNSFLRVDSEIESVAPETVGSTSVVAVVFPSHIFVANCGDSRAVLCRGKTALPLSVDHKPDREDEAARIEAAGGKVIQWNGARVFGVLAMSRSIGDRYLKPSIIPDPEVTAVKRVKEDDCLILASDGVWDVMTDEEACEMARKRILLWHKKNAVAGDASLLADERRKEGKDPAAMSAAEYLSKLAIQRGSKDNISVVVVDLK
| Substitution | relative binding score [%] |
| --- | --- |
| L8E | 19.6 |
| R74T | -12.9 |
| L94C | 43.8 |
| E131V | 86.5 |
| K126G | 95.2 |
| V44K | -11.2 |
| N61D | 83.5 |
| K116L | -4.97 |
| R49S | 77.7 |
| P146H | 0.137 |
| Y141R | -9.47 |
| L93G | -2.15 |
| Y141S | -9.53 |
| E125R | 85.5 |
| P83W | 3.48 |
| D48W | 5.87 |
| E4A | 73.1 |
| E67R | 77.3 |

Set 4
Target: Prothrombin, mature alpha-thrombin (F2, Homo sapiens, UniProt P00734)
Technique: aptamer microarray, sandwich
Form: DNA with 2'F-ANA
Sample: in vitro
Concentration: 200 nM
Setting: whole 15-mer aptamer, many near background
Together with: Cy3 exosite-II aptamer, 400 nM
Direction: higher = stronger binding
Sequence: GGTTGGTGTGGTTGG
| Modification | mean fluorescence intensity [a.u.] |
| --- | --- |
| 2'F-ANA at 4 5 8 14 15 | 42.7 |
| 2'F-ANA at 3 7 10 11 13 | 633 |
| 2'F-ANA at 2 3 6 7 8 11 | 743 |
| 2'F-ANA at 1 3 5 9 10 13 | 47.6 |
| 2'F-ANA at 3 4 5 6 7 10 11 15 | 52.8 |
| 2'F-ANA at 1 3 4 7 8 10 11 | 65.9 |
| 2'F-ANA at 1 3 4 6 7 9 12 14 | 70.6 |
| 2'F-ANA at 3 5 6 8 12 14 | 67.1 |
| 2'F-ANA at 2 3 4 5 6 8 9 12 13 15 | 109 |
| 2'F-ANA at 1 3 5 10 | 43.4 |
| 2'F-ANA at 1 2 3 5 7 8 9 10 11 12 13 15 | 54.1 |
| 2'F-ANA at 1 6 10 11 12 13 14 | 49 |
| 2'F-ANA at 3 4 5 6 7 8 9 11 12 13 | 111 |
| 2'F-ANA at 1 4 5 11 13 | 66.7 |
| 2'F-ANA at 2 4 13 15 | 264 |
| 2'F-ANA at 2 3 6 11 12 13 | 772 |
| 2'F-ANA at 1 4 5 6 7 8 11 13 14 15 | 52.3 |
| 2'F-ANA at 3 4 6 8 9 10 14 | 178 |

For quick reference, copied from above (set 4):
| Modification | mean fluorescence intensity [a.u.] |
| --- | --- |
| 2'F-ANA at 3 7 10 11 13 | 633 |
| 2'F-ANA at 2 3 6 7 8 11 | 743 |
| 2'F-ANA at 1 3 5 9 10 13 | 47.6 |
| 2'F-ANA at 3 4 5 6 7 10 11 15 | 52.8 |
| 2'F-ANA at 1 3 4 7 8 10 11 | 65.9 |
| 2'F-ANA at 1 3 4 6 7 9 12 14 | 70.6 |
| 2'F-ANA at 3 5 6 8 12 14 | 67.1 |
| 2'F-ANA at 2 3 4 5 6 8 9 12 13 15 | 109 |
| 2'F-ANA at 1 3 5 10 | 43.4 |
| 2'F-ANA at 1 2 3 5 7 8 9 10 11 12 13 15 | 54.1 |
| 2'F-ANA at 1 6 10 11 12 13 14 | 49 |
| 2'F-ANA at 3 4 5 6 7 8 9 11 12 13 | 111 |
